# Assay results from different studies.
# Each line is one published result; not all experiments were run side by side. ± gives the spread as reported.
Structure (SMILES),assay,system,conditions,how to read,measurement,value
Cc1cc(NC(=O)c2cccc(NC(=O)C3=CC(C)(C)CCC3=O)c2)ccc1Nc1nccc(-c2cccnc2)n1,,rat plasma,1 µM,,plasma stability,stable
Nc1ncc(-c2ccc3ncnc(N4CCc5cc(F)c(Cl)cc54)c3c2)cn1,,"CD1 mouse, brain","intravenous, 5 mg/kg",,AUC(0-t),2900 ng·h/mL
O=C(NO)C1CSC(c2ccc(F)c(C(F)(F)F)c2)=N1 (stereo not shown),,aqueous buffer,pH 7.4,,solubility,42.3 mg/mL
CC(=O)Nc1ccc2c3c(cccc13)C(=O)N(CCN1CCN(CCCCN3C(=O)CN(/N=C/c4ccc(-c5ccc(Cl)cc5)o4)C3=O)CC1)C2=O,,Britton-Robinson buffer,acidic pH,baseline: neutral pH,fluorescence intensity increase,~30 fold
CCCSc1nc(N[C@@H]2C[C@H]2c2ccc(F)c(F)c2)c2nnn([C@@H]3C[C@H](O)[C@@H](O)[C@H]3O)c2n1,,"rat, male, plasma","oral, 60 mg/kg/day ticagrelor, day 1",,AUC,45.8 µM·h
Cc1ncc(CCc2ccc3c(c2)c(=O)c(C(N)=O)cn3-c2ccc(F)cc2)cn1,,"rat, plasma","iv, 0.2 mg/kg, 15 min, cassette dosing",,concentration,122 nM
NC1CCN(Cc2ccn3ncnc(Nc4cccc(-c5cnco5)c4)c23)CC1,,"mouse, plasma","intraperitoneal, 30 mg/kg, 90 min",,total plasma concentration,8.4 µM
CN(C)S(=O)(=O)c1ccc(NCCCCCCN2CCC(Nc3nc4ccccc4n3Cc3ccc(F)cc3)CC2)c2nonc12,,Tris-HCl assay buffer,,,excitation wavelength,441 nm
CCN(CC)c1ccc2c(-c3ccccc3C(=O)N(C)CCCC(=O)N[C@@H](CC(C)C)C(=O)N[C@@H](CCCNC(=N)N)C(=O)N[C@@H](CCCNC(=N)N)C(=O)N[C@@H](C)C(=O)N[C@@H](CO)C(=O)N[C@@H](CC(C)C)C(=O)NCC(=O)O)c3ccc(=[N+](CC)CC)cc-3oc2c1,UV/Vis,phosphate buffer 25 mM,"100 µM, pH 7.4",,absorption maximum wavelength,566 nm
CN(Cc1cccnc1)c1ccc2c(c1)c(=O)c(C(N)=O)cn2-c1ccc(F)cc1,,"rat, plasma",,,unbound fraction,0.082
O=C(COc1ccc(C=CC2=[N+]3C(=Cc4ccc(-c5ccc[nH]5)n4[B-]3(F)F)C=C2)cc1)NCCCCCC(=O)N1CCN(C(=O)c2cc(Cc3n[nH]c(=O)c4ccccc34)ccc2F)CC1,,"mouse, plasma","intravenous, 75 nmol",,C0,22800 nM
NC(=O)c1cn(-c2ccc(F)cc2)c2ccc(CN3CCCS(=O)(=O)CC3)cc2c1=O,,"rat, plasma",,,unbound fraction,0.253
Oc1c(Cl)cccc1CNc1nc2ccccc2n1CC1CC1,,"mouse, liver microsomes","1 µM, 37 °C, added: NADPH",,half-life,4.3 min
O=C1Nc2cccc(C#CC3(O)CCNCC3)c2/C1=C/c1cc2ccccc2[nH]1,,"C57BL/6 mouse, plasma","intraperitoneal, 10 mg/kg",,Cmax,~2000 nM
O=C(NO)[C@H]1COC(c2ccc([N+](=O)[O-])cc2)=N1,,octanol/buffer,pH 11,,logD,-1.47
CC(C)n1nnc(-c2cccc(Nc3ncnn4ccc(CN5CCC(N)CC5)c34)c2)n1,,,pH 6.5,,aqueous solubility,> 7.96 mg/mL
Cn1cnc(S(=O)(=O)N2C[C@@H]3[C@H](C2)[C@@]3(CNC(=O)c2ccc(F)cc2F)CC2CC2)c1 (relative stereo),,"rat, brain and plasma",oral,,brain-to-plasma ratio (Kp),0.5
CN(C)c1ccc(C2=NC(C(=O)NO)CS2)cc1 (stereo not shown),,aqueous buffer,pH 7.4,,solubility,42.5 mg/mL
Cc1ccc(OCc2ccc3c(c2)c(=O)c(C(N)=O)cn3-c2ccc(F)cc2)cn1,,"rat, plasma",,,unbound fraction,0.087
CC(C)n1nnc(-c2cc(O)cc(Nc3ncnn4ccc(CN5CCC(N)CC5)c34)c2)n1,from plasma protein binding,"mouse, plasma","subcutaneous, 30 mg/kg, 90 min",,free plasma concentration,27 nM
O=C(O)c1cccc(-c2nc(-c3ccccc3F)c3sccn23)c1,,human liver microsomes,"1 µM, 30 min",,remaining compound,60.2%
NC(=O)c1cn(-c2ccc(F)cc2)c2ccc(NCc3cccnc3)cc2c1=O,,rat,"iv, 0.2 mg/kg, 15 min, cassette dosing",,"Kp,uu brain/plasma",0.02
Clc1ccc(-c2cc(NCCCN3CCCCC3)c3ccccc3n2)cc1,,human plasma,1 h,,remaining compound,95.4%
CC[C@H](C)[C@H](NC(=O)[C@H](Cc1ccccc1)NC(=O)[C@H](CC(=O)O)NC(=O)[C@H](CCCNC(=N)N)NC(=O)[C@H](Cc1ccccc1)NC(=O)[C@H](Cc1ccccc1)NC(=O)[C@H](CCCCN)NC(=O)[C@H](CO)NC(=O)[C@H](CC(C)C)NC(=O)[C@H](CCCNC(=N)N)NC(=O)[C@H](CCSC)NC(=O)[C@H](C)N)C(=O)N[C@@H](CC(C)C)C(=O)N[C@@H](CCC(N)=O)C(=O)N[C@@H](CCCNC(=N)N)C(=O)N[C@@H](CCCCN)C(=O)N[C@@H](CCCCN)C(=O)O,CD thermal denaturation,2.5 mM DPC,,,melting temperature,57.1 °C
Cc1ncc(CN(C)c2ccc3c(c2)c(=O)c(C(N)=O)cn3-c2ccc(F)cc2)cn1,,"rat, plasma",,,unbound fraction,0.34
CCOc1ccccc1Nc1nnc(SCC(=O)Nc2cc(F)ccc2F)s1,,simulated gastric fluid,"2 h, pH 1.2",,remaining compound,> 95%
NC(=O)c1cn(-c2ccc(F)cc2)c2ccc(NCCc3cccnc3)cc2c1=O,,"rat, plasma",,,unbound fraction,0.037
O=C(OC(C(F)(F)F)C(F)(F)F)N1Cc2ccc(Br)cc2C1,,"male CD-1 mouse, brain","oral, 8 mg/kg, 30 min, cassette dosing",,brain concentration,0.008 ± 0.002 µg/g
COc1ccc2c(c1)S(=O)(=O)N(CCCCCc1ccccc1)C(=O)O2,,DMSO,room temperature,,stability,≥ 2 weeks
COc1ccc(CC(=O)OCc2ccc(-n3cccn3)cc2)cc1F,,"PBS, 1% DMSO",pH 7.4,,kinetic solubility,97.4 µM
Cc1c(-c2ccccc2)nn2c(=O)cc(-c3cccc(-c4nnn[nH]4)c3)[nH]c12,,mouse liver microsomes,"1 µM, 30 min",,remaining compound,90.2%
CC(=NN=c1[nH]c2cc(F)c(F)cc2n1C)c1ccc(F)cn1,,plasma,"oral, 10 mg/kg",,dose-normalised AUC(0-last),172 mg·h/mL
Cc1n[nH]c(C)c1CCOC(=O)c1cccc2c1oc(=O)n2C,,"BALB/c mouse, plasma","oral, 10 mg/kg",,Tmax,77.4 min
O=C(NO)[C@H]1COC(c2ccc(F)cc2)=N1,,aqueous buffer,pH 7.4,,solubility,69.5 mg/mL

# A few entries again:
Structure (SMILES),assay,system,conditions,how to read,measurement,value
Oc1c(Cl)cccc1CNc1nc2ccccc2n1CC1CC1,,"mouse, liver microsomes","1 µM, 37 °C, added: NADPH",,half-life,4.3 min
O=C1Nc2cccc(C#CC3(O)CCNCC3)c2/C1=C/c1cc2ccccc2[nH]1,,"C57BL/6 mouse, plasma","intraperitoneal, 10 mg/kg",,Cmax,~2000 nM
